Published values gathered from unrelated publications.
Numbers after ± are the reported error.
CHRM4: Muscarinic acetylcholine receptor M4 (CHRM4, Homo sapiens, UniProt P08173)
Sequence of UniProt P08173 (whole entry, looked up): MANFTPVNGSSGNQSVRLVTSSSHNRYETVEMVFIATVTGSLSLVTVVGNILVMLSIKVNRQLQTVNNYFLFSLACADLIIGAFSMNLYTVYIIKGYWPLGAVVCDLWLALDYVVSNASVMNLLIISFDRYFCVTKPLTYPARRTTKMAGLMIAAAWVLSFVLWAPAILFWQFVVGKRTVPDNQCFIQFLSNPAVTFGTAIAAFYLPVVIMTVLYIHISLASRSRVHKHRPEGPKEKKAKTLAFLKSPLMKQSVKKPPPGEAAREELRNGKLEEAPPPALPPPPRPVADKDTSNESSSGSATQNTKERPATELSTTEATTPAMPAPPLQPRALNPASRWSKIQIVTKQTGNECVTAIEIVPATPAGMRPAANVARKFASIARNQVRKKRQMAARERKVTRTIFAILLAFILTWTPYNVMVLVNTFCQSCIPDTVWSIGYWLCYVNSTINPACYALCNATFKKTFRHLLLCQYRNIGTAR
Kir3.1/Kir3.2: Kir3.1/Kir3.2 (Homo sapiens, UniProt P48051+P48549)
Sequence of UniProt P48549 (whole entry, looked up): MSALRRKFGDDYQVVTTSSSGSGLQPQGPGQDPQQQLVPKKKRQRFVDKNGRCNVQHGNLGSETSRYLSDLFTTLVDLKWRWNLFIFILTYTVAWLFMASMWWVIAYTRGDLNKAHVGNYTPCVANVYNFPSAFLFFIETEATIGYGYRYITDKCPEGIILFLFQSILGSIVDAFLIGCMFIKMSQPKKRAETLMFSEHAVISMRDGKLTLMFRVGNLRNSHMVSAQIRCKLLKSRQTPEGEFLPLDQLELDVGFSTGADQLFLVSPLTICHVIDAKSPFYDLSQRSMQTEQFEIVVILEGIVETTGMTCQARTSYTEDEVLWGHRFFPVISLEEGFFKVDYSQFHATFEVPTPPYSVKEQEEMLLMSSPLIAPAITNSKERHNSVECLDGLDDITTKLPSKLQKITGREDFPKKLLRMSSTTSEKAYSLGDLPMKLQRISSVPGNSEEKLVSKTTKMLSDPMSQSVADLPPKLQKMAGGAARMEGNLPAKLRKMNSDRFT
Sequence of UniProt P48051 (whole entry, looked up): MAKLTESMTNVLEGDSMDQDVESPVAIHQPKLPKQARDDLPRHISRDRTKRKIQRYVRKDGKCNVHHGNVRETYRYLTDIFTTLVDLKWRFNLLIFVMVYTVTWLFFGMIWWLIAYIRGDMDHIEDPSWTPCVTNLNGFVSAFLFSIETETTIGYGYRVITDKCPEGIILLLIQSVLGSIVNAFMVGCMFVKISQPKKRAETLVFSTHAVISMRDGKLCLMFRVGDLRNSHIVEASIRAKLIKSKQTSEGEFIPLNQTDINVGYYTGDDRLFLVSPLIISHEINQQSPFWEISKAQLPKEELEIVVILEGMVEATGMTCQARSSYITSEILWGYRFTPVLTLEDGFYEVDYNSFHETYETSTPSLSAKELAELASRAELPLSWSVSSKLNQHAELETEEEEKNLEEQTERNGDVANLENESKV
Sequence of UniProt Q9NSD7 (whole entry, unmodified, looked up): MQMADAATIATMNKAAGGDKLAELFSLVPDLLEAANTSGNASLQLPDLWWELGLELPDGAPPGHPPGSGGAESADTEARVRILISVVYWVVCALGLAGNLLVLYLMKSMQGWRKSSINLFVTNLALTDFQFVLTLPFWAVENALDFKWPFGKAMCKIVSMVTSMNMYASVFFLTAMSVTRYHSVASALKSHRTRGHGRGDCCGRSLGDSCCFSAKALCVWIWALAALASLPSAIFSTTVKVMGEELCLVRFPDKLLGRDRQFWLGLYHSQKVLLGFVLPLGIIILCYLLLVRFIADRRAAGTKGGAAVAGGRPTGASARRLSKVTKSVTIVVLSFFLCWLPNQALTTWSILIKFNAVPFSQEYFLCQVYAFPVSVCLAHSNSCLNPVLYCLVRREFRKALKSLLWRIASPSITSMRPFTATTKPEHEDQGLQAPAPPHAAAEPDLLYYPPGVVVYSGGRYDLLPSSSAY
Sequence of UniProt P32214 (whole entry, looked up): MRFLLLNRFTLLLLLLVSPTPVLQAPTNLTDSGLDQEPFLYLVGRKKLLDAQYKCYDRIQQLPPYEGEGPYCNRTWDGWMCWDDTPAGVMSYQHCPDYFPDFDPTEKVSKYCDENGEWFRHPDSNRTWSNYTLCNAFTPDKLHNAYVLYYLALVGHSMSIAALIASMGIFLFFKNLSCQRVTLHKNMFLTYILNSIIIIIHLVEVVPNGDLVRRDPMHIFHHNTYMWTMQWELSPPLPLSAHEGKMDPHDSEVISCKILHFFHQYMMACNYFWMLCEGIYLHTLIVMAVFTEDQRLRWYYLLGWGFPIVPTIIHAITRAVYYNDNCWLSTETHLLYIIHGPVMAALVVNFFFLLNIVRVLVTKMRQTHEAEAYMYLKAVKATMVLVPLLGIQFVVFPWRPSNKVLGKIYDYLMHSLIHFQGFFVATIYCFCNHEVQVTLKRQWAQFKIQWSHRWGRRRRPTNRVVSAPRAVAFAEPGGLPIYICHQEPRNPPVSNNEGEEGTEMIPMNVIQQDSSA
Sequence of UniProt P48546 (whole entry, looked up): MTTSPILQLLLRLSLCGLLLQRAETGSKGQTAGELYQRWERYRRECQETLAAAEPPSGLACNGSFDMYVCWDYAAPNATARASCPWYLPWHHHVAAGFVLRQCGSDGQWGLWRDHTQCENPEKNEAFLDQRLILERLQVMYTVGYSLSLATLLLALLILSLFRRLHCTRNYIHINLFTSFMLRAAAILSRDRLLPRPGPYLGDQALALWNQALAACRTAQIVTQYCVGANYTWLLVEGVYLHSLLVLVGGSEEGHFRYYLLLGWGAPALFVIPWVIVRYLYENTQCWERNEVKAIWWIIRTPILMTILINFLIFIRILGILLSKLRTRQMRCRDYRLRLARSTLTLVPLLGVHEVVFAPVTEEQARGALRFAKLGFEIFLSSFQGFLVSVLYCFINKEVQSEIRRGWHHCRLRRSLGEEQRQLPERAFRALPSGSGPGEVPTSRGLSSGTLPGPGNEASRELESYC
Sequence of UniProt Q969F8 (whole entry, unmodified, looked up): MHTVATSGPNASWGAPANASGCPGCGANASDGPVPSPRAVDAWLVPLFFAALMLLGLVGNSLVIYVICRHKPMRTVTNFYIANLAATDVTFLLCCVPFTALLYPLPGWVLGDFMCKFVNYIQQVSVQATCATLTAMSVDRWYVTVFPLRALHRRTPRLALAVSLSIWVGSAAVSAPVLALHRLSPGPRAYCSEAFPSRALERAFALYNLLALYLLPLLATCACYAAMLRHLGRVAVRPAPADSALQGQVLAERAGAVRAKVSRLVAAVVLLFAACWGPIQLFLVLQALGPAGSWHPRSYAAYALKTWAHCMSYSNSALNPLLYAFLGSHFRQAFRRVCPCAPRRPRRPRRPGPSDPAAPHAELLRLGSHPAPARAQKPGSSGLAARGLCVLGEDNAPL
Sequence of UniProt Q9JJ73 (whole entry, looked up): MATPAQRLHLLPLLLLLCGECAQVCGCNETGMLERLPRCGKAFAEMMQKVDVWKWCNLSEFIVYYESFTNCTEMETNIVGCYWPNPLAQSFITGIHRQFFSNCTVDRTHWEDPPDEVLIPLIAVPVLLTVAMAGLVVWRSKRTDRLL
Sequence of UniProt P32245 (whole entry, looked up): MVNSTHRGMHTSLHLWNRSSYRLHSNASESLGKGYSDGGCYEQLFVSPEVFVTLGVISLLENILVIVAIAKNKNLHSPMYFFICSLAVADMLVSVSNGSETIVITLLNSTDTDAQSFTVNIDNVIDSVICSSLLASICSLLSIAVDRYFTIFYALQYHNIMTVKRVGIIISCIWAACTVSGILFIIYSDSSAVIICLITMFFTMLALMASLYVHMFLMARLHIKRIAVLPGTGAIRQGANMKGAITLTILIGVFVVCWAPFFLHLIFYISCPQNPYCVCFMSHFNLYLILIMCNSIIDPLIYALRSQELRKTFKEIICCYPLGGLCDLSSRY

SMILES	target	test	test system	setting	scale	Emax [%]
C=CCn1c(=O)c2ccccc2n2c(SCC(=O)NCc3ccc(NC(C)=O)cc3)nnc12	CHRM4	receptor activation, agonist		concentration not given, 16 h		120 ± 4
O=C(COc1cccc(Cl)c1Cl)Nc1cc(C2CC2)nn1CC(F)(F)F	Kir3.1/Kir3.2	thallium flux, activator	HEK293		baseline: standard compound	68
C=CCn1c(=O)c2ccccc2n2c(SCC(=O)NC3CC3)nnc12	CHRM4	receptor activation, agonist		concentration not given, 16 h		120 ± 1
CCCCCCCCCCCCCCCC(=O)N[C@@H](CCC(=O)NCCCC[C@H](NC(=O)[C@H](CCC(N)=O)NC(=O)[C@H](Cc1c[nH]cn1)NC(=O)[C@@H](NC(=O)[C@H](CCCCN)NC(=O)[C@H](CC(=O)O)NC(=O)[C@H](CCSC)NC(=O)[C@H](C)NC(=O)[C@@H](NC(=O)[C@H](CO)NC(=O)[C@H](Cc1ccc(O)cc1)NC(=O)[C@H](CC(=O)O)NC(=O)[C@H](CO)NC(=O)[C@@H](NC(=O)[C@H](Cc1ccccc1)NC(=O)[C@@H](NC(=O)CNC(=O)[C@H](CCC(=O)O)NC(=O)[C@H](C)NC(=O)[C@H](Cc1ccc(O)cc1)NCC(F)(F)F)[C@@H](C)O)[C@@H](C)CC)[C@@H](C)CC)[C@@H](C)CC)C(=O)N[C@@H](CC(=O)O)C(=O)N[C@@H](Cc1ccccc1)C(=O)N[C@H](C(=O)N[C@@H](CC(N)=O)C(=O)N[C@@H](Cc1c[nH]c2ccccc12)C(=O)N[C@@H](CC(C)C)C(=O)N[C@@H](CC(C)C)C(=O)N[C@@H](C)C(=O)N[C@@H](CCC(N)=O)C(=O)N[C@@H](CCCCN)C(=O)NCC(=O)N[C@@H](CCCCN)C(=O)N[C@@H](CCCCN)C(=O)N[C@@H](CC(N)=O)C(=O)N[C@@H](CC(=O)O)C(=O)N[C@@H](Cc1c[nH]c2ccccc12)C(=O)N[C@@H](CCCCN)C(=O)N[C@@H](Cc1c[nH]cn1)C(=O)N[C@@H](CC(N)=O)C(=O)N[C@H](C(=O)N[C@H](C(=O)N[C@@H](CCC(N)=O)C(=O)O)[C@@H](C)O)[C@@H](C)CC)C(C)C)C(=O)O	GIPR (Homo sapiens, UniProt P48546)	reporter gene, agonist, luciferase	HEK293			100
CNC(=N)NCCC[C@H](NC(=O)[C@H](CC(C)C)NC(=O)NNC(=O)[C@H](Cc1ccccc1)NC(=O)[C@@H](NC(=O)[C@H](CC(N)=O)NC(=O)[C@@H]1C[C@@H](O)CN1C(=O)[C@@H](Cc1ccc(O)cc1)NC(C)=O)[C@@H](C)O)C(=O)N[C@@H](Cc1c[nH]c2ccccc12)C(N)=O	KiSS-1 receptor (KISS1R, Homo sapiens, UniProt Q969F8, D242A)	inositol phosphate, agonist	HEK293			63.7
O=C(COc1ccc(C(F)(F)F)cc1C(F)(F)F)Nc1cc(C2CCC2)nn1CC(F)(F)F	Kir3.1/Kir3.2	thallium flux, activator	HEK293		baseline: standard compound	35
CCc1cc(O)cc2c(/C=N/NC(=N)NCCc3ccc(Cl)cc3)c[nH]c12	RXFP3 (Homo sapiens, UniProt Q9NSD7, K271A)		HEK-293T		baseline: wild type	62.4 ± 5.4
CSCC[C@H](NC(=O)[C@@H](NC(=O)[C@@H](N)Cc1ccc(O)cc1)C(C)C)C(=O)NCC(=O)N[C@@H](Cc1c[nH]cn1)C(=O)N[C@@H](Cc1ccccc1)C(=O)N[C@@H](CCCNC(=N)N)C(=O)N[C@@H](Cc1c[nH]c2ccccc12)C(=O)N[C@@H](CC(=O)O)C(=O)N[C@@H](CCCNC(=N)N)C(=O)N[C@@H](Cc1ccccc1)C(N)=O	MC4R (Homo sapiens, UniProt P32245)	cAMP, agonist	CHO-K1			96
CC(C)C[C@H](NC(=O)[C@H](CCCN)NC(=O)CNC(=O)[C@@H](NC(=O)[C@H](C)NC(=O)[C@@H]1CSCSC[C@H](NC(=O)CC[C@H](N)C(=O)O)C(=O)N[C@@H](CC(N)=O)C(=O)N[C@@H]([C@@H](C)O)C(=O)N[C@@H](C)C(=O)N[C@@H]([C@@H](C)O)C(=O)N1)[C@@H](C)O)C(=O)N[C@@H](C)C(=O)N[C@@H](CCC(=O)O)C(=O)N[C@@](C)(Cc1ccccc1)C(=O)N[C@@H](CC(C)C)C(=O)N[C@H](C(=O)N[C@@H](CCCNC(=N)N)C(=O)N[C@@H](CO)C(=O)N[C@@H](CO)C(=O)N[C@@H](CC(N)=O)C(=O)N(C)[C@@H](CC(N)=O)C(=O)N[C@@H](Cc1ccccc1)C(=O)NCC(=O)N1CCC[C@H]1C(=O)N[C@@H](CCCCNC(=O)CC[C@H](NC(=O)CC[C@H](NC(=O)CCCCCCCCCCCCCCCCCCC(=O)O)C(=O)O)C(=O)O)C(=O)N[C@@H](CC(C)C)C(=O)N1CCC[C@H]1C(=O)N1CCC[C@H]1C(=O)N[C@H](C(=O)N[C@@H](CCC(=O)O)C(=O)N[C@H](C(=O)NCC(=O)N[C@@H](CO)C(=O)N[C@@H](CC(N)=O)C(=O)N[C@H](C(=O)N[C@@H](Cc1ccc(O)cc1)C(N)=O)[C@@H](C)O)C(C)C)[C@@H](C)O)C(C)C	Amylin receptor AMY3; CALCR/RAMP3 (Rattus norvegicus, UniProt P32214+Q9JJ73)	cAMP, agonist	UMUC3			> 80
CCc1cc(NC(=O)COc2cc(Cl)ccc2Cl)n(CC(F)(F)F)n1	Kir3.1/Kir3.2	thallium flux, activator	HEK293		baseline: standard compound	80
CC[C@H](C)[C@@H]1NC(=O)[C@H](Cc2ccccc2)NC(=O)[C@H](CCC(=O)O)NC(=O)[C@H](CCCNC(=N)N)NC(=O)CNC(=O)[C@@H](NC(=O)[C@H](CC(C)C)NC(=O)[C@H](CCCNC(=N)N)NC(=O)[C@@H](NC(=O)CNC(=O)[C@H](Cc2ccc(O)cc2)NC(=O)[C@@H]2CCCN2C(=O)[C@H](C)NC(=O)[C@H](C)NC(=O)[C@@H](N)CCCNC(=N)N)C(C)C)CSSC[C@@H]2NC(=O)[C@@H](NC(=O)[C@H](CO)NC(=O)[C@H](CO)NC(=O)[C@H](CO)NC(=O)[C@H](CC(C)C)NC(=O)CNC(=O)[C@H](C)NC(=O)[C@H](CC(C)C)NC(=O)[C@@H](NC(=O)[C@@H](N)CC(=O)O)C(C)C)CSSC[C@H](NC(=O)CNC(=O)[C@H](Cc3c[nH]c4ccccc34)NC(=O)[C@H](CCCCN)NC2=O)C(=O)N[C@@H](CO)C(=O)N[C@@H](CCCCN)C(=O)N[C@@H](CO)C(=O)N[C@@H](CCC(=O)O)C(=O)N[C@@H]([C@@H](C)CC)C(=O)N[C@@H](CO)C(=O)N[C@@H](CO)C(=O)N[C@@H](CC(C)C)C(=O)N[C@H](C(=O)O)CSSC[C@@H](C(=O)NCC(=O)NCC(=O)N[C@@H](CO)C(=O)N[C@@H](CCCNC(=N)N)C(=O)N[C@@H](Cc2c[nH]c3ccccc23)C(=O)O)NC(=O)[C@H]([C@@H](C)O)NC(=O)[C@H](Cc2ccccc2)NC(=O)[C@H]([C@@H](C)CC)NC(=O)[C@H](C(C)C)NC(=O)[C@H](C)NC(=O)[C@H](CCCNC(=N)N)NC1=O	RXFP3 (Homo sapiens, UniProt Q9NSD7, V375T)		HEK-293T		baseline: wild type	66.5 ± 3.7
CCc1cc(NC(=O)COc2ccc(C(F)(F)F)cc2C(F)(F)F)n(C2CCC(F)(F)CC2)n1	Kir3.1/Kir3.2	thallium flux, activator	HEK293		baseline: standard compound	72
COc1cc(C2C(NC(=O)c3ccc(NC(=O)OC(C)(C)C)cc3)(C(=O)O)C(c3ccc(OC(=O)c4cccs4)c(OC)c3)C2(NC(=O)c2ccc(NC(=O)OC(C)(C)C)cc2)C(=O)O)ccc1OC(=O)c1cccs1 (stereo not shown)	GLP1R (Homo sapiens, UniProt P43220, V194A)	cAMP accumulation, agonist		receptor mutant	baseline: wild type	93.3 ± 4.31

A few entries again:
SMILES	target	test	test system	setting	scale	Emax [%]
C=CCn1c(=O)c2ccccc2n2c(SCC(=O)NC3CC3)nnc12	CHRM4	receptor activation, agonist		concentration not given, 16 h		120 ± 1
O=C(COc1cccc(Cl)c1Cl)Nc1cc(C2CC2)nn1CC(F)(F)F	Kir3.1/Kir3.2	thallium flux, activator	HEK293		baseline: standard compound	68
